Measurements collected from several papers.
Each numbered part is a random draw from the data of one study; scales do not carry over between parts.

Sample 1
Target: Ras GTPase-activating protein-binding protein 1, RRM domain (G3BP1, Homo sapiens, UniProt Q13283)
UniProt Q13283, sequence (whole entry, looked up): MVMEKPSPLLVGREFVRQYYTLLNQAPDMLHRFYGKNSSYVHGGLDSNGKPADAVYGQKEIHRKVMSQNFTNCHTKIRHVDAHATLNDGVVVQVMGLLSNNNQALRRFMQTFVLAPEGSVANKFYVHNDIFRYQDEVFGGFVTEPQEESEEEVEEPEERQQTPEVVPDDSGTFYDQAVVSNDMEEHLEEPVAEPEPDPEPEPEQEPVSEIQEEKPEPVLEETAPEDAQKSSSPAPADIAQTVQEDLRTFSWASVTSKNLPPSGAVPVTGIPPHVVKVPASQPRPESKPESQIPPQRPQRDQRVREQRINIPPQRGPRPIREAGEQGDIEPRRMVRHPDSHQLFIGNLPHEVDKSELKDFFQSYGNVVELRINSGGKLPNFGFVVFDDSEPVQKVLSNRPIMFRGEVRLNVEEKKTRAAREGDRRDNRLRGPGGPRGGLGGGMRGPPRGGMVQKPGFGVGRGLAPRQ
Technique: RNA Bind-n-Seq
Molecule type: RNA
Sample: in vitro
Concentration: 1 µM
Setting: whole 134-nt RNA, ends assumed
Together with: 150 mM KCl
Relative to: input library
Reading: higher = stronger binding
`GGGAGUUCUACAGUCCGACGAUCGUCCUGUGCUACACAUCGUAUGUACCGAAUCGGGGAAAGGGGUGGGGUUUUUUUGGGGAAAGUAUUAUGUUACGCCGUUCGGAUCUGCACUGGAAUUCUCGGGUGUCAAGG` has a log2 enrichment of 0.885.
The log2 enrichment of `GGGAGUUCUACAGUCCGACGAUCGUCCUGUGCUACACAUCGUAUGUACCGAAUCAAACCCCCAAAUUUAAAUUUUUUUAAAAAAGUAUUAUGUUACGCCGUUCGGAUCUGCACUGGAAUUCUCGGGUGUCAAGG` is reported as -0.575.
The log2 enrichment of `GGGAGUUCUACAGUCCGACGAUCUGGCCCUGGUGGCAUGCGGGGAGGAAGAGGUGGCCUCAUGGAUAGUGGUGGUCCCGGUGGAAUGUUCAGAGGUGGCCGUGGUGGAGACAGUGGAAUUCUCGGGUGUCAAGG` is reported as 1.07.

Sample 2
Target: Prothrombin, mature alpha-thrombin (F2, Homo sapiens, UniProt P00734)
Technique: aptamer microarray, sandwich
Molecule type: DNA with 2'F-ANA
Sample: in vitro
Concentration: 200 nM
Setting: whole 15-mer aptamer, many near background
Together with: Cy3 exosite-II aptamer, 400 nM
Reading: higher = stronger binding
Oligonucleotide: GGTTGGTGTGGTTGG
`2'F-ANA at 1 7 10 11` — result for “mean fluorescence intensity”: 50.9 a.u.
Under “mean fluorescence intensity”, `2'F-ANA at 5 7 12 13 14` is recorded as 48.7 a.u.
`2'F-ANA at 2 3 6 7 8 11 12 15`: “mean fluorescence intensity” 817 a.u.
`2'F-ANA at 1 2 5 10 11 12 15` — result for “mean fluorescence intensity”: 65.3 a.u.
`2'F-ANA at 3 4 5 6 7 9 11 13 14`: “mean fluorescence intensity” 48.3 a.u.
For `2'F-ANA at 1 2 10 11 14`, “mean fluorescence intensity” read 54.5 a.u.
`2'F-ANA at 1 4 9 11 13 14 15` — result for “mean fluorescence intensity”: 48.8 a.u.

Sample 3
Target: Interferon regulatory factor 7, full length, phosphomimetic (IRF7, Homo sapiens, UniProt Q92985, residues 1-503, S101K/S471D/S472D/S475D/S476D/S477D/S483D/S484D/S487D)
UniProt Q92985, sequence (whole entry, unmodified, looked up): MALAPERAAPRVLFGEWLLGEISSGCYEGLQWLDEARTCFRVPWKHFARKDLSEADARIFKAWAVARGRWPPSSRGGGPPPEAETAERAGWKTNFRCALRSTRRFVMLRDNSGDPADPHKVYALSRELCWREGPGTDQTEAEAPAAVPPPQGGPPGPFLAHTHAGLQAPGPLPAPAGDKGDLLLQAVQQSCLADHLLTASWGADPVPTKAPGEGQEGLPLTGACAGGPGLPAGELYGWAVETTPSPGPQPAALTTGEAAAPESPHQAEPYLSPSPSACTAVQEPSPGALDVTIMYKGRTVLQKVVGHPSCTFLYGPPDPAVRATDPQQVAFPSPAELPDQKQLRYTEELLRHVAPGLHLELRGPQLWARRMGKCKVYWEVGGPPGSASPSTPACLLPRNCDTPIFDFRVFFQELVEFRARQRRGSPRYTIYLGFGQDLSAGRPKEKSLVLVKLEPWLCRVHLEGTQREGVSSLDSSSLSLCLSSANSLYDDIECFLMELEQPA
Technique: protein-binding microarray
Molecule type: double-stranded DNA, one strand shown
Sample: in vitro
Concentration: 250 nM
Setting: 60-bp whole probe
Together with: salmon DNA 0.4 mg/ml
Relative to: random background probes
Reading: higher = stronger binding
All sequences stand within: GCCTAGCAC … GTCTTGATTCGCTTGACGCTGCTG
For `GACGAACTGGGGGATCGAGACGTGCTA`, the log fluorescence was 0.153 z-score.
`GACGGACTGAGACTGGAGACGTGCTAG` has a log fluorescence of -0.648 z-score.
For `GGCGGTTTCGGTATCGGGACGTGCTAG`, the log fluorescence was 9.92 z-score.
The log fluorescence of `GACGGACTGGGGTATCGGGAAGTGCTA` is reported as -0.707 z-score.
`TGGCCTCTAGGTTTTCTGAAGTGCTAG` has a log fluorescence of -0.258 z-score.
With `TCATCTTTTTTTCTTTTACTGTGCTAG` the log fluorescence was 1.36 z-score.
The log fluorescence of `GACGAACTGGGGACTAGAGACGTGCTA` is reported as -0.252 z-score.
The log fluorescence of `GACGGATTCGGACTGGGGACGTGCTAG` is reported as 0.183 z-score.

Single results of other studies
The fold induction of `PhoQ, residues 284 288 289 292 302 303 ALAMYF` is reported as 0.424 (PhoP, residues 12 14 15 18 19 MHTVL (Escherichia coli, UniProt P23836); Sort-seq, measured: YFP reporter; E. coli; PhoQ-PhoP variant library, together with: 10 µM Mg2+; relative to: high Mg2+ state, higher = stronger signaling).

Repeated from above (sample 2):
`2'F-ANA at 3 4 5 6 7 9 11 13 14`: “mean fluorescence intensity” 48.3 a.u.
